Measured values collected from several papers.
Parts stem from different laboratories: compare values within a part only.

Set 1
Target: Prothrombin, mature alpha-thrombin (F2, Homo sapiens, UniProt P00734)
Technique: aptamer microarray, sandwich
Molecule type: DNA with 2'F-ANA
Sample: in vitro
Tested at: 200 nM
Notes: whole 15-mer aptamer, many near background
Added: Cy3 exosite-II aptamer, 400 nM
Reading: higher = stronger binding
Strand: GGTTGGTGTGGTTGG
Modification | mean fluorescence intensity
2'F-ANA at 2 3 5 6 11 14 | 274 a.u.
2'F-ANA at 1 4 5 9 12 14 15 | 49.3 a.u.
2'F-ANA at 1 2 3 5 8 9 10 | 44.6 a.u.
2'F-ANA at 3 6 8 9 11 13 | 888 a.u.
2'F-ANA at 3 4 7 8 11 12 15 | 911 a.u.
2'F-ANA at 1 2 3 7 10 12 14 | 66.7 a.u.
2'F-ANA at 1 3 6 7 12 14 15 | 106 a.u.
2'F-ANA at 6 9 10 11 13 15 | 126 a.u.
2'F-ANA at 2 4 8 9 12 13 15 | 414 a.u.
2'F-ANA at 2 6 9 13 15 | 242 a.u.
2'F-ANA at 1 2 4 6 7 9 11 13 | 70.3 a.u.
2'F-ANA at 1 5 6 8 9 10 11 12 14 15 | 60.7 a.u.
2'F-ANA at 2 5 6 7 14 | 47.6 a.u.
2'F-ANA at 1 4 5 8 9 10 11 12 13 14 | 58.4 a.u.
2'F-ANA at 5 6 7 8 11 12 15 | 128 a.u.
2'F-ANA at 1 2 3 9 10 11 12 14 15 | 53 a.u.
2'F-ANA at 1 2 3 4 5 6 7 9 11 13 | 51.6 a.u.
2'F-ANA at 1 3 5 6 7 8 10 12 13 14 15 | 68.2 a.u.
2'F-ANA at 1 3 4 5 7 8 11 13 | 53.6 a.u.
2'F-ANA at 2 6 8 9 10 11 12 14 | 80.3 a.u.

Set 2
Target: Interferon regulatory factor 3, full length, phosphomimetic (IRF3, Homo sapiens, UniProt Q14653, residues 1-427, S386D/S396D/S398D/S402D/T404D/S405D)
Technique: protein-binding microarray
Molecule type: double-stranded DNA, one strand shown
Sample: in vitro
Tested at: 2540 nM top
Notes: 60-bp whole probe
Added: salmon DNA 0.4 mg/ml
Relative to: random background probes
Reading: higher = stronger binding
Shared flanks, not repeated: GCCTAGCAC … GTCTTGATTCGCTTGACGCTGCTG
Construct (chain): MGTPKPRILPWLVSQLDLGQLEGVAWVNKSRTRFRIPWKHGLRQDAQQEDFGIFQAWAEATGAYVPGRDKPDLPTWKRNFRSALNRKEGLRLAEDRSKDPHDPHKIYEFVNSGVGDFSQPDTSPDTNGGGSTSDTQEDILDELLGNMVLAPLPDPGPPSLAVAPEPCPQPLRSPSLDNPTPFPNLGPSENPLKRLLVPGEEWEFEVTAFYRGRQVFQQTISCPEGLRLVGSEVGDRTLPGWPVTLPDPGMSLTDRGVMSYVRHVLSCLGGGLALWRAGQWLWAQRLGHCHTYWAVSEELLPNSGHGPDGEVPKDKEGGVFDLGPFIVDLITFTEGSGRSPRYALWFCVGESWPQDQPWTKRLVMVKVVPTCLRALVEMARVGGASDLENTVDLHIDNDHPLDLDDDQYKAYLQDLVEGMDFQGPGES
Strand | fitted relative affinity [z-score]
TTAGATTTCGGGTAGCGATTAGTGCTA | 0.682
GGCATTTTTTTTATCAATCAGTGCTAG | 0.282
GTGCCTTTATATACCTGAATGTGCTAG | 1.68
TTAGATTCCAGCTTCGATTAGTGCTAG | 2.02
GACGATATCAGTCTCGCGACGTGCTAG | 1.07
TTAAAACTGAGACTGGATTAGTGCTAG | -0.32
CTAGGTCTCCTTTTCCTTTAGTGCTAG | 5.08
GACGAACTGGGGACTGGACACGTGCTA | -0.633
GACGGTATCGGTCGCGGGACGTGCTAG | 1.56
GAATCTCCCATTATATTTTAGTGCTAG | 1.75
GGCGGTATCGACTTTCGGGACGTGCTA | 1.2
GACGATTTCAGTTTCAAGACGTGCTAG | 3.55
TGAGATCTCAGTATCGATTAGTGCTAG | 0.884
GACGGGCTCCTTTTCCTGACGTGCTAG | 2.56
TTAGGTCTCGGACTGGCTTAGTGCTAG | -0.463
CTAGGTTTCCTACTGCTTTAGTGCTAG | 4.77
CTTTAACTCATTTTCGTTTTGTGCTAG | 2.95
TTAGGTCCCCTACTGCTTTAGTGCTAG | 0.485
TTAGATATCGGGAGTGGATTAGTGCTA | -0.362
GACGGGCTGCTTCTCCTGACGTGCTAG | -0.757
GACGCTCTCGGACTGGGGACGTGCTAG | -0.415
TTAGGTTTCGGGTATCGGTTCGTGCTA | 5.14
TGGTTTTTACTTTCTGAATGGTGCTAG | 3.46
TCATTTTTTCTTTTATTACTGTGCTAG | 2.61

Set 3
Target: Histone acetyltransferase KAT6A, winged helix 1, GST fusion (KAT6A, Homo sapiens, UniProt Q92794, residues 1-85)
Technique: protein binding microarray
Molecule type: double-stranded DNA, one strand shown
Sample: in vitro
Tested at: not given
Notes: 8-mer, flanks averaged, mean of 2 arrays, mostly near background
Relative to: not given
Reading: higher = stronger binding
Construct (chain): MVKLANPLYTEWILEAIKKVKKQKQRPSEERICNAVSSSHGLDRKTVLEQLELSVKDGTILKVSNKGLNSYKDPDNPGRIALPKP
Strand | E-score
ATTGTGCA | -0.142
CAACACTC | -0.0498
AGAAGTCA | -0.174
ATACCATA | -0.237
AGTCGCTG | 0.0351
AAAGTAGG | -0.0534
TGGCGTAA | -0.00245
CATCTCAG | -0.0893
CATCCAGC | 0.00932
CCAGCTCC | -0.141
ACCTGCCA | -0.189
AAAGGTCT | -0.0729
CACGGCTG | 0.278
ACACATCG | -0.232
CTCACCTC | -0.201
ATGTTTGG | -0.0417
ATCACGTC | -0.0554
CCGACAAA | 0.0442
AGTTGGTA | -0.263
AGTACGTA | -0.0808
GAACCCAA | -0.175
GAAAATCC | -0.176
CATACCGA | 0.0177
AGAGGTGG | -0.199
CCCAATAG | -0.206

Set 4
Target: Sal-like protein 4, full length isoform A (SALL4, Homo sapiens, UniProt Q9UJQ4, residues 1-1053)
Sequence of UniProt Q9UJQ4 (whole entry, looked up): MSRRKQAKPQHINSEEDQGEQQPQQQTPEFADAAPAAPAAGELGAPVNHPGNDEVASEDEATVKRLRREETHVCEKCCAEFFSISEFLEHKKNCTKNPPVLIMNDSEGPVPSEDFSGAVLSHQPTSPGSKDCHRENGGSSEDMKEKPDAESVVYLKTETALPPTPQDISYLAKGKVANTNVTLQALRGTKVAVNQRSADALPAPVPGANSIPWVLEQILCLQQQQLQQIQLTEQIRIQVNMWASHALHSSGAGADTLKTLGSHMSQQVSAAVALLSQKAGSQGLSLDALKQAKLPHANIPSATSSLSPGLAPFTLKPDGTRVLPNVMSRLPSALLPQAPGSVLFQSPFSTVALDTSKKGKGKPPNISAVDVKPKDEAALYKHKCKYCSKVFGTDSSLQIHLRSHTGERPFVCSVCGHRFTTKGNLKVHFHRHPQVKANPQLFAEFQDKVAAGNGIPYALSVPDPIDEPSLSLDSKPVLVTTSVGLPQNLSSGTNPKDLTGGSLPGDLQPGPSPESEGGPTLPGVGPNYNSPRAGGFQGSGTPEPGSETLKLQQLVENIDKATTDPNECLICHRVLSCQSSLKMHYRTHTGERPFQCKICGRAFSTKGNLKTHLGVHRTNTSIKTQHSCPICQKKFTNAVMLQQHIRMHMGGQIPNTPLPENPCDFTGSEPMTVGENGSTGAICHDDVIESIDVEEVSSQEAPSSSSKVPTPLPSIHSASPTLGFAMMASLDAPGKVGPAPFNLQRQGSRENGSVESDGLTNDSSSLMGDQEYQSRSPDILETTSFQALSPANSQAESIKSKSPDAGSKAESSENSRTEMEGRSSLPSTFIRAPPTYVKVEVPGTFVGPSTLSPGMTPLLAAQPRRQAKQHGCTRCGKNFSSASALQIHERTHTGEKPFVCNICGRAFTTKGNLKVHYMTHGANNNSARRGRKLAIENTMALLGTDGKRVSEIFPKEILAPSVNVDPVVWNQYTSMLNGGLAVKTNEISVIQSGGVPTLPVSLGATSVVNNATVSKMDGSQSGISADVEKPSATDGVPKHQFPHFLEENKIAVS
Technique: universal PBM
Molecule type: double-stranded DNA, one strand shown
Sample: in vitro
Tested at: 600 nM
Notes: 8-mer, flanks averaged, mean of replicates
Reading: higher = stronger binding
Strand | E-score
ACTTCCCC | -0.175
GACGGATA | -0.0575
GTCGTCCA | -0.0887
AATGACGG | -0.0503
ATCCGATA | 0.127
ACTTCTAT | 0.172
CGCTATAA | 0.151
CCTTGATA | 0.144
CGCGTGAG | -0.12
CGCTTCCC | -0.139
CTGTTCCC | -0.2
AACCACGT | -0.0456
ACTAAGTG | 0.0868
ATACCGAC | 0.0326
AACCATAC | 0.132
GAGTCAGC | -0.221
AAGGCCTC | -0.215
AAGAATGC | 0.141
AGGCAGCG | -0.295
ACTATGAC | 0.216

Set 5
Target: RING finger protein unkempt homolog, zinc fingers 1-6, GST-SBP tag (UNK, Homo sapiens, UniProt Q9C0B0, residues 30-357)
Sequence of UniProt Q9C0B0 (30-357, looked up): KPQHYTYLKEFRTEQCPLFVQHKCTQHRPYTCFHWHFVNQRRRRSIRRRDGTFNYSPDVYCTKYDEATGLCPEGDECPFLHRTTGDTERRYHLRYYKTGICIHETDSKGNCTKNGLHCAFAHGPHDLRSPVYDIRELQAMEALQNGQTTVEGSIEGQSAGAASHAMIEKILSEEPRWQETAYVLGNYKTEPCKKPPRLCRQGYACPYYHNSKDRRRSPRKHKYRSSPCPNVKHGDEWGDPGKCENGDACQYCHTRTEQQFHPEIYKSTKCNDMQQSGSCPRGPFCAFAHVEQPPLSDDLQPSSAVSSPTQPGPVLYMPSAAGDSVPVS
Technique: RNA Bind-n-Seq
Molecule type: RNA
Sample: in vitro
Tested at: not given
Notes: RNA with constant flanks, ends assumed
Relative to: input RNA pool
Reading: higher = stronger binding
Shared flanks, not repeated: GGGAGUUCUACAGUCCGACGAUC … CAACAGAGGAUUGAGCAUCA
Strand | bound/input enrichment
UUUUCUAGGAUGUCUUCUGAGAUUGGAAGGGAAAAGAGUCAGGACUGGGGCUCUGCUGGACCCGGAGGAGUAUUUAAGGUGGAGUGGAUACGAAAAGAAAGCCUUCCCUUUCAAUUUGCA | 0.404 ratio
AAGCCUUUCUCUCUCACUUCCCGAGGUGCCUUGUUUCAGGAGAUCUCCAGCAAUGACAUCCGUUCCAAACUCACUCUUCUUACACUUCACUUCCCCAGACUACGGAUUCUCUGGUGCCCC | 0.451 ratio
GAGAUGAAGAAGAAGAUUAACAUGGAGUUGAAGAACAGAGCCCCGGAGGAGGUGACAGAGUCCGUCCUCGAUAAUUGCUUGUGUGUCAAUGGGGAAAUCGAAGGCCUGAAUGACACCUUU | 0.193 ratio
AAAGCAAUAAAUGUAGAUCUUCAAAGUGAUGCUGCUCUGCAGGUGGACAUUUCUGAUGCUCUCCGUGAGCGGGAUAAAGUAAAAUUCACUGUUCACACAAAGAGUUCAUUGCCAAAUUUU | 0.358 ratio
UCAAUAACCUUUUCAGAUGAAAACGAUGAUCAGGAUUUUGAAUUAUGGGAUGAUGCCGGAUUAAACAUUCCAAAACCUCCAGACUUAUUGCAACUCUACCGGGAUUUUGGAAAUCAUCAA | 0.183 ratio
CAGAUUUUGAAAACGUUGAUGGAAGAAACAACACGUCAGCAGAGCAUGAUACGGGAGCUCACCGAGACCAACCAGCAACUGAAAAGUGAACUUCAGCUAGAACAGAACCGAGCGGCACAC | 0.338 ratio
CGCUGAUGUGAACCUUUUUAUAGAUUGUAGUAACCUGCAGAAAGAAGUAGGUUUUUAUUUUCCGGAAGUUAUGUACCAUAAUUUUAAACUUAAGUUUCUCUAAUAUUACUAACUAUAAAA | 0.791 ratio
AGUAGCACUUUUGUUGUACAUUGUGUUCCAAUAAGUAUAGUAUGGAACACUUUCUCAUUUUCCGUUCCCAUAAUAUGCCAGUUUUUGCUUUCCUAGUGUUCUGUGAGUAUUAGGAUUUGG | 1.34 ratio
CCUGGGGCUUUGGUGCAGUGCUUGAGGCUACCAAAGUUUGCAGAGGAGGAGACUCUUUGUACCGACUCUAUAACUCCUUGUGCUGAUGGAAUUCAUUUGUUGGUAGGACUGCGGACAUGC | 0.154 ratio
AUUCCAUAUUUAUUACGACUGAGACAAAUUAAGGAUGAAACUCUUCAGGCUGCAGUCCGAGAAAUUUUGGCCCUAAUUGGCUAUGUGGAUCCAGUGAAAGGGAGAGGAAUCCGAAUUCUC | 0.268 ratio
CAUAAUUAUGGUGCUCGUCCUCCUCCAACACCUCCAGCAUCCCCUCCUCCAUCAGGUCUCAUCCGCAAAAACGAAGUAGGCAUAUUUACCACUCCUAAUUUUGAUGAAACUUCCAGUGCU | 0.395 ratio

Repeated from above (set 1):
Modification | mean fluorescence intensity
2'F-ANA at 6 9 10 11 13 15 | 126 a.u.
2'F-ANA at 2 4 8 9 12 13 15 | 414 a.u.
2'F-ANA at 2 6 9 13 15 | 242 a.u.
2'F-ANA at 1 2 4 6 7 9 11 13 | 70.3 a.u.
2'F-ANA at 1 5 6 8 9 10 11 12 14 15 | 60.7 a.u.
2'F-ANA at 2 5 6 7 14 | 47.6 a.u.
2'F-ANA at 1 4 5 8 9 10 11 12 13 14 | 58.4 a.u.
2'F-ANA at 5 6 7 8 11 12 15 | 128 a.u.
2'F-ANA at 1 2 3 9 10 11 12 14 15 | 53 a.u.
2'F-ANA at 1 2 3 4 5 6 7 9 11 13 | 51.6 a.u.
2'F-ANA at 1 3 5 6 7 8 10 12 13 14 15 | 68.2 a.u.
2'F-ANA at 1 3 4 5 7 8 11 13 | 53.6 a.u.
